Measurements gathered from unrelated publications.
± marks the error that the study gave.

| Compound | cell line | assay | conditions | IC50 |
| --- | --- | --- | --- | --- |
| Cc1cc(N)c2cc(NC(=O)CCCC(=O)Nc3ccc4nc(C)cc(N)c4c3)ccc2n1 | CHO wild type | FGF2 binding to heparan sulfate, inhibitor, flow cytometry | on ice, added: biotinylated FGF2 2.5 nM | 61.5 ± 0.7 µM |
| CCOP(=O)(OCC)C(Cc1ccccc1F)Nc1ccc(Cl)cc1 (stereo not shown) | T98G | cell growth or viability, MTT | 48 h | 67.9 µM |
| COC(=O)[C@H]1[C@H]2C[C@H]3O[C@@]4(CCN3C[C@H]2C[C@@H](OC(=O)c2cc(OC)c(OC)c(OC)c2)[C@@H]1OC)C(=O)Nc1cc(OC)c(-c2ccc(C)cc2)cc14 | RS4-11 | cell growth or viability, trypan blue | 72 h | 3.71 µM |
| CC(C)=CCc1c(O)cc2oc3cc(O)c(O)c(CC=C(C)C)c3c(=O)c2c1O | SW480 | cell growth or viability | 48 h | 8.4 µM |
| CC1(C)CCC(CN2CCN(c3ccc(C(=O)NS(=O)(=O)c4ccc(NCC5COCCO5)c([N+](=O)[O-])c4)c(N4CCCOc5nc6[nH]ccc6cc54)c3)CC2)=C(c2ccc(Cl)cc2)C1 (stereo not shown) | RS4-11 | cell growth or viability, ATP luminescence | 24 h | 5e-05 µM |
| NC1=N[N+](=Cc2c3ccccc3cc3ccccc23)[Ga-3]23([S]1)([S]C(N)=N[N+]2=Cc1c2ccccc2cc2ccccc12)[S]C(N)=N[N+]3=Cc1c2ccccc2cc2ccccc12 | CCD-18Co |  | 72 h | 55.4 ± 2.1 µM |
| Cc1cc(C#N)cc(C)c1Oc1cc(Nc2ccc(C#N)cn2)nc2ccncc12 | HuCC-A1 |  | 48 h | > 127 µM |
| Cc1cn([C@@H]2O[C@H](CO)[C@@H](O)[C@H](F)[C@H]2O)c(=O)[nH]c1=O | Molt4/C8 | cell growth or viability |  | > 200 µM |
| C1=[N+]2CCCC[N+]3=Cc4ccc5[n]4[Au-]23[n]2c1ccc2-c1nc2ccccc2nc1-5.F[P-](F)(F)(F)(F)F | renal cancer cell lines |  | NCI60 panel mean | 25 µM |
| CC(C)c1cccc(C(C)C)c1-n1ccn(-c2c(C(C)C)cccc2C(C)C)c1=[Se].[Cl][Ag] | LoVo | cell growth or viability, MTT | 72 h | 3.1 µM |
| CC(=O)OC1CCC(OC(C)=O)O1 (racemic) | human T lymphocytes | interleukin-2 release, inhibitor, ELISA | pre-treated 2 h, added: concanavalin A 50 µg/mL 48 h | > 10 µM |
| N=C(N)NCCC[C@H](N)C(=O)N1CCC[C@H]1C(=O)N[C@H](CC(=O)N[C@@H](Cc1ccccc1)C(=O)O)c1cccc2ccccc12 | MCF-7 (no HER2 overexpression) |  |  | > 50 µM |
| Cc1ccc2nc(C)n(/N=C/c3ccc(C(=O)O)cc3)c(=O)c2c1 | LoVo | cytotoxicity, LDH release | 24 h, 50% viability reduction | 321 ± 13.2 µM |
| N=C(N/N=C/c1cccs1)N/N=C/c1cccs1 | KP-4 | cell growth or viability, crystal violet | 72 h | 10.8 µM |
| COc1ccc2cc3[n+](cc2c1OCc1cn(Cc2ccc(F)cc2Br)nn1)CCc1cc2c(cc1-3)OCO2 | SW1990 | cell growth or viability, MTT |  | 44.2 µM |
| CC1=C2[O][Ru-]([Cl])[O+]=C2C=CN1CCCCCCCCCCCCN1C=CC2=[O+][Ru-]([Cl])[O]C2=C1C.Cc1ccc(C(C)C)cc1.Cc1ccc(C(C)C)cc1 | SISO | cell growth or viability, crystal violet | 96 h | 2.5 µM |
| O=C(NO)c1ccc(Cn2sc3ccccc3c2=O)cc1 | REH | cell growth or viability, ATP luminescence | 72 h | 1.8 µM |
| COCC12CCC(OC)C34C5CC6(O)C(OC)C(=O)C(C5C6O)C(C(OC)C13)C4N(C)C2 (stereo not shown) | HBE | cell growth or viability, MTT |  | 32.6 µM |
| CC(=O)O[C@@H]1CC[C@@]2(C)[C@@H](CC[C@]3(C)[C@@H]2C(=O)C=C2[C@@H]4[C@@H](C)[C@H](C)CC[C@]4(C)CC[C@]23C)[C@@]1(C)C(=O)NCCNC(=O)CCCCCCCCCC[P+](c1ccccc1)(c1ccccc1)c1ccccc1 | HBE | cell growth or viability, MTT | 48 h | 2.44 µM |

Repeated from above:
| Compound | cell line | assay | conditions | IC50 |
| --- | --- | --- | --- | --- |
| Cc1cn([C@@H]2O[C@H](CO)[C@@H](O)[C@H](F)[C@H]2O)c(=O)[nH]c1=O | Molt4/C8 | cell growth or viability |  | > 200 µM |
| C1=[N+]2CCCC[N+]3=Cc4ccc5[n]4[Au-]23[n]2c1ccc2-c1nc2ccccc2nc1-5.F[P-](F)(F)(F)(F)F | renal cancer cell lines |  | NCI60 panel mean | 25 µM |
